# Measured values gathered from unrelated publications.
# A part holds a random share of what one study measured.

# Series 1 — method: RNA Bind-n-Seq; molecule type: RNA; matrix: in vitro; concentration: 1 µM; setting: whole 134-nt RNA, ends assumed; with: 150 mM KCl; relative to: input library; reading: higher = stronger binding
# Target: Ras GTPase-activating protein-binding protein 1, RRM domain (G3BP1, Homo sapiens, UniProt Q13283)
# Chain of UniProt Q13283 (whole entry, looked up): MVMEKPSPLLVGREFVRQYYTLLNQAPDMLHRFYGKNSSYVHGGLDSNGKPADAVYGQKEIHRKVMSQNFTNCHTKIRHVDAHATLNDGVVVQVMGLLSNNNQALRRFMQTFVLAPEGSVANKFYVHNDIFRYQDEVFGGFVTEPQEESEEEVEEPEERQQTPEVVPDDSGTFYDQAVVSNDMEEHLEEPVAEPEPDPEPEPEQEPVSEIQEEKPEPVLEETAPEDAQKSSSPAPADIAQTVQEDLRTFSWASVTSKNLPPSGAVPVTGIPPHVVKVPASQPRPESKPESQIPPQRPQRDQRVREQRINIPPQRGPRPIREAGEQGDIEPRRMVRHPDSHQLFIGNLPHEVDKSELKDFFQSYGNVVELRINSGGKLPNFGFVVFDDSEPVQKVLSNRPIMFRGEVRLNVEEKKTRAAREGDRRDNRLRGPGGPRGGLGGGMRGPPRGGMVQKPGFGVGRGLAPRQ
# Shared flanks, not repeated: GGGAGUUCUACAGUCCGACGAUC … UGGAAUUCUCGGGUGUCAAGG
Oligonucleotide,log2 enrichment
UCAAGUCCUGUGCUACACAUCGUAUGUACCGAAUCGGAAAAAAAGGUUUGGUGGAAAGUAUUAUGUUACGCCGUUCGGAUCUGCACUUCC,-0.18
CUCAAGUCCUGUGCUACACAUCGUAUGUACCGAAUCGGGGCGGGGCGGCGGGGAAAGUAUUAUGUUACGCCGUUCGGAUCUGCACUUCCA,0.0844
UCAAGUCCUGUGCUACACAUCGUAUGUACCGAAUCGGUGGAAAGGAAAAAAAGGAAAGUAUUAUGUUACGCCGUUCGGAUCUGCACUUCC,-0.102
UCCUCAAGUCCUGUGCUACACAUCGUAUGUACCGAAUCGGUUUGGAGGAGGAAAGUAUUAUGUUACGCCGUUCGGAUCUGCACUUCCAGC,-0.249
UCCUCAAGUCCUGUGCUACACAUCGUAUGUACCGAAUCGGGAGGGAGGGAGGAAAGUAUUAUGUUACGCCGUUCGGAUCUGCACUUCCAG,0.747
UGGGAGGUGGAUUUUGUUUAUUUUUUUAGCUCAUUUCCAGGGGUGGGAAUUUUUUUAUAAUAUGUGUCAUGAAUAAAGUUGUUUUUGAAA,1.41
GUCCUGUGCUACACAUCGUAUGUACCGAAUCGGUUUUUUGGUUUUUUGGUUUUUUGGGGAAAGUAUUAUGUUACGCCGUUCGGAUCUGCA,-0.214
CACAGACAACACGCACCCACACAGACACAGAGGGAAGGGGUUGGGCUGGGGACAGGGUGCACAGCAGGGCGGGGUAGGACCCCAGCCCCU,-0.0243

# Series 2 — method: RNA Bind-n-Seq; molecule type: RNA; matrix: in vitro; concentration: 365 nM; relative to: no-protein control; reading: higher = stronger binding
# Target: RNA binding protein fox-1 homolog 2, RRM domain, GST-SBP tag (RBFOX2, Homo sapiens, UniProt O43251-10, residues 100-194)
# Setting: natural RNA segment, single round, ends assumed
# Shared flanks, not repeated: GGGAGUUCUACAGUCCGACGAUC … UGGAAUUCUCGGGUGCCAA
# Residues (chain): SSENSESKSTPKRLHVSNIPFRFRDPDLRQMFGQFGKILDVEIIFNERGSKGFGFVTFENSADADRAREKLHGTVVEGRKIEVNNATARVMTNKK
Oligonucleotide,RBNS enrichment (R)
UGUGAUGUGUUCCAGGUUUAGCCUAGGGUCCAUUCUUGUCACUGUUUCUUACUGUGUAGAGUACCUUUGGCAAUGUCUCUUCUGUACAUAUUUAUUUAUUUGUGUUCACG,0.252
UGGAAGGGGUGCCUGUCCCCUUGGGGACAGAAGGAAAAUGAAAGGCCCCUCUGCUCACCCUGGCCAUUUACGGGAGGCUCUGCUGGUUCCACGGUGUCUGUGCAGGAUCC,0.502
UUUAUGUAUUUUUUGUGAAUGAAACUGUUGCUGUAGGAAAGUCAAGGUUCAUGUAAGAGUAUCGUGGUGUAAAUAUAAUGGUUUCACAGCUGUUUGAAUUUUUCUUUUCC,1.4
UUCCCUAUCCCUUCUCCUGAGCACCCUUUGAUUUCUGAGGACAGUACUACCCAUUCAUCUAUUGUAGAGUAACCCUUGUGACUCAAUAUUACCAUAGUGCGAUGUUGUUU,0.514
GGUGAUAACCAGGGCCAUAGAAGACCUUUUCUCUCUUACCUUUCUCUGAUAGGAUCGUGUCCUUCAGUCAAGAGCUCAUGUGAACUCCAGACUUUAUAUUACAUCUCUGA,0.368
AGGGACGGACAUUGCAGUUACACCACGAUUCCUUCCUCUUCACUGGCUCGAGGUAAACCCUUUUCAAGGAAAAACAACUCUAGGAUUUCUUUUUUCUGUGUACGUAGACC,0.542
AGAUAAUAAGAACAAUUGUCCCGUGAAUGAUUCUAUGAAGCUAUGCAUCUUAGACCUCUUGAGCUGUGAAUUAGCACUAUUUUCUAUGGUUACUUAUUAUCUAUUGUUUU,6.86
GAGCCAGCUAGGGCAGGAGUUGGGGAAAGACGCGCAGAAAGGCAAGCCCGAGUCAGGGCACUUGUUAUUUAAAUGUGCCAUUUCCCAGGUUGCCACCCUUCAUAGAGUUU,0.402
GAAGCUGGUGUGAAAGGCUAGGAGGCAUUGUUUUCUAUUAUUCCUCGGUGAAGCCUUUUCCCAGAGCAUAUGUCUCCGGCAGGCAGUGUGGGUUCUUGCCAAGCAUCAGA,0.787
UGUAUUUCUAAUUUGCAUAUUUAAUUUUGUCAACACUAAGAAAUGUUCAUGUGUUGAAUUUGUAAAUAUAAUUUGCAACCAAAUGAAGUAUUUAUUUUUAAAAAGAAAAG,0.623
UAAAUAAUAUUUAAGCUUGUGCCCAUGUUGGCCGGGCAACUUUUUUCAAUGGUGCUUAUUAGAAGAAGUUUUUUCAUCUUGUCAUUUUAAGAAAAUAAAACUGGAAAUUG,0.473
CUGUGUGCCCAAAAUUCUGUUUCGCAGCAAAAGUGAAGACCUGUAUGUAAAGAAAGUAUAACAAUUAUUUCUUUGUAUUUUAGGGGCUUUAACCGGAACAUCGUCUAGCU,0.261

# Series 3 — method: RNA Bind-n-Seq; molecule type: RNA; matrix: in vitro; concentration: 100 nM; relative to: input RNA pool; reading: higher = stronger binding
# Target: RING finger protein unkempt homolog, zinc fingers 1-6, SBP tag (UNK, Homo sapiens, UniProt Q9C0B0, residues 30-357)
# Chain of UniProt Q9C0B0 (30-357, looked up): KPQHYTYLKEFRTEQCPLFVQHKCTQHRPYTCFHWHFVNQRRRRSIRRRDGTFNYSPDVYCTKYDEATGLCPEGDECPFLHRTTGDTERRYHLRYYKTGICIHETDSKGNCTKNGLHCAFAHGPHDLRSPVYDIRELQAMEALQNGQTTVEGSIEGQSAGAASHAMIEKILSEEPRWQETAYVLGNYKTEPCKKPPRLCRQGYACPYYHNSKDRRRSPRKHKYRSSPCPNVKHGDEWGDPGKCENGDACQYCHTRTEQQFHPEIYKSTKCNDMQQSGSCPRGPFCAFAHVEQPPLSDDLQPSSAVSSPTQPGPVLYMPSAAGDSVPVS
# Setting: RNA with constant flanks, vertebrate orthologous sites, ends assumed
# Shared flanks, not repeated: GGGAGUUCUACAGUCCGACGAUC … CAACAGAGGAUUGAGCAUCA
Oligonucleotide,bound/input enrichment
AAUCAGUAGAAUUACAUAAUACUAAAGUUGCAGUUAAAAGGAUAUCCAAGUAUGUGUUGGUAGUUACUAAAAGAAUUAUAGCUGUUAUUGCCUUGUAUUUAUAGCCCUUGUUUCAGGUUU,0.645 ratio
CCGAAAGGCCAAAUUCCCUCCUCCCUUCUACUGCUUCUACCAACUGGAAGCACAGAAAACUAGAAUUACAUUUAUUUUGUUUUUUAAAAAUAUACGUUGAUUUCUUGUAACAUUCAGUAG,0.808 ratio
CUGUUGUUAAGCACUGUGUUCCAGACCGCGUCUGACUUUAGCGUAAGCUAGGAGAUUUCAUAGUUUUAUUUUAACGAAACCUGCUUGACGCAGAGCAGUGGGGAGAGCAGUGUCCUCUAC,0.645 ratio
AGAAAAUUUUAACCAUGAAUCUGAAGGUAGAAAUACAGGUCCGUGGUUAUCUUCCUCACUUAGAAAUAGAUGCACACCUUUGUUCUCUAGAAGGAGAAGAGAGGGAAGAGAUGAAUCUUC,0.96 ratio
AGCAACCCAAGGAUUCAGGACUGGUUUCACAAAUAUCCCAAGCAGAUGUGGAACUAACAGUAGAAUUGGACAACCAAGACCAUGAUGUACUAUAAUUUAAUUUAUUUUUAUGAGGAAUAU,0.56 ratio
CUACUCUAAACAACUCAGGGCAGUAUUCUCGCUAUCCUUACAGUAACCUAAAUCAGGGAUUAGUUAACAAUACAGGGAUGAAUCAAAAUUUAGGCCUUACAAAUAAUACUCCAAUGAAUC,1.61 ratio
AGAAAAUUUUAACCAAGAACCUGAAGGUAGAAAUACAGGACCAUGGUUAUCUUCCUCACUUAGAAAUAGAUGCACACCUUUGUUUUCUCGAAGGAGACGAGAGGGACGAGAUGAAUCUUC,0.965 ratio
UAUCUUUAGGAUGAAGCUCUUACAUCAGGUGUCACACGUCUGGAAAACAGAUGGGUUGAGCAGUUGUGAUUACAAAUUACUCUCUGUGGAUUACAAUCCUUUAUAUAUCAACAUCACAGU,0.504 ratio
CCACUAUAAACAACUCAGGGCAGUACUCCCGCUAUCCUUACAGCAACCUAAAUCAGGGAUUAGUUAACAGUACAGGGAUGAACCAGAACCUAGGCCUUACCAAUAGUGCUCCCCUGAACC,1 ratio
GAUAUUGAAUAGUAUUAAACAUUUUCGUCUUCCUUUAUCUUUUAUCCCCUACCUAAUAUUUAGUCUACUUUUAAAAAUUCCAGACUUCACUGCUCUUUGAACUGAUAAUUCCAGUUUUCA,2.09 ratio
CAUGUCCCUGUUACUGUGACAUUUAAAAUAUCCACAGUGCUCACUUUUUCCAAAUGAUUCUAGUAAUUACCUAGAAAUAUUUUUCUCUUACCUGUUAUUUAUCAAUUUUUCCCCAGUAUU,2.05 ratio

# Series 4 — method: universal PBM; molecule type: double-stranded DNA, one strand shown; matrix: in vitro; concentration: 600 nM; reading: higher = stronger binding
# Target: Sal-like protein 4, full length isoform A (SALL4, Homo sapiens, UniProt Q9UJQ4, residues 1-1053)
# Chain of UniProt Q9UJQ4 (whole entry, looked up): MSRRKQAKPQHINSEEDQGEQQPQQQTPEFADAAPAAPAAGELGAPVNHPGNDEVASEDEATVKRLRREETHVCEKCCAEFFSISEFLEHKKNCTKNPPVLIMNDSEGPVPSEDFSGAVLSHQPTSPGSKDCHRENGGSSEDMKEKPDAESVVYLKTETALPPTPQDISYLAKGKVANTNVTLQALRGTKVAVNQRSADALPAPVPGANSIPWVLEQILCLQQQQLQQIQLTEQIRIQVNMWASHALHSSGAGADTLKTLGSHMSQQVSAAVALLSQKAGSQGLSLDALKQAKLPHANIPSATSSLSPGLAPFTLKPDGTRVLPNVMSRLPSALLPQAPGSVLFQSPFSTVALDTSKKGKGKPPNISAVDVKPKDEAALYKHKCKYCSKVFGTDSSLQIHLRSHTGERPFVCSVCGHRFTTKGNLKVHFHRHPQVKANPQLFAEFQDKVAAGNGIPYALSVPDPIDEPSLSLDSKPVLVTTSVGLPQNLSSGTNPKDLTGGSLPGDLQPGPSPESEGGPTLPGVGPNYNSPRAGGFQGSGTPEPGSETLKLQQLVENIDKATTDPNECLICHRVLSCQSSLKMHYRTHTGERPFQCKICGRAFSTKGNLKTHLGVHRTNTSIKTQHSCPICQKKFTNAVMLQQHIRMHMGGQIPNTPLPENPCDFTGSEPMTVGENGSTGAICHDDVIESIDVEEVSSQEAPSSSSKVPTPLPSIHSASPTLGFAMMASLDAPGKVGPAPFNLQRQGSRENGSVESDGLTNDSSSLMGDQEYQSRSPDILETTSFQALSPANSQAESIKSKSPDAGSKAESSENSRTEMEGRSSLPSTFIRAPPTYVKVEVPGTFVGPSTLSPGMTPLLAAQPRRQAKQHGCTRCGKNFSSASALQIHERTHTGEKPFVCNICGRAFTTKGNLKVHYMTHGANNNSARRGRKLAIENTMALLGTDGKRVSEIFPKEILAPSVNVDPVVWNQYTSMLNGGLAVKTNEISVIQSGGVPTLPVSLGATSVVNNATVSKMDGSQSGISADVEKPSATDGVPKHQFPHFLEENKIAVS
# Setting: 8-mer, flanks averaged, mean of replicates
Oligonucleotide,E-score
CATCAGAG,-0.00545
CTGCAACA,0.0188
TCTTTGCA,0.211
ACATAAAC,0.33
ATCCGTCG,-0.102
TAGCAGCA,-0.0587
CGGGAAAG,-0.294
GAATGACA,0.153
AACTAAGG,0.117
CTCGGGTC,-0.202
GTACGAAA,0.182
GCGCTGCC,-0.34
ATCGCGAG,0.0437
ATCAGGAG,-0.0247
AATGTGGG,0.103
ATAACGAT,0.137
CCAGAGCC,-0.273
AGACCGTG,-0.245
CGCCATTA,-0.103
GGAACGCC,-0.264
CGTGTGCC,-0.214
CATCCGGA,-0.224
CAGTTACG,-0.1
TGTCCCAA,-0.0326
AGTGGGGG,-0.2

# Mixed results
Molecule,target,assay,system,setting,scale,quantity,result
GSPAKKLFTSTGL,Cln2 (Saccharomyces cerevisiae),"peptide binding, competitive growth sequencing","peptide, Saccharomyces cerevisiae, unfused Cln2 strain",mutational scanning library 1,direction not given,enrichment score,0.423

# Repeated from above (series 4):
Oligonucleotide,E-score
CGTGTGCC,-0.214
CATCCGGA,-0.224
CAGTTACG,-0.1
TGTCCCAA,-0.0326
